Results collected from several papers.
Lines come from different studies, so protocols differ. “And” joins repeats or separate records; there may be more than shown. ± gives the spread as reported.
mexR: Multidrug resistance operon repressor (mexR, Pseudomonas aeruginosa, UniProt P52003)
Sequence of UniProt P52003 (whole entry, looked up): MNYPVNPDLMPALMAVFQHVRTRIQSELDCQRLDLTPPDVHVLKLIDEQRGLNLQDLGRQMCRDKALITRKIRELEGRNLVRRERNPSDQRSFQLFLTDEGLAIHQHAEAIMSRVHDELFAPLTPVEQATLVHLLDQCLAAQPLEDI
YES1 SH2 domain: Tyrosine-protein kinase Yes, SH2 domain (YES1, Homo sapiens, UniProt P07947)
Sequence of UniProt P07947 (whole entry, looked up): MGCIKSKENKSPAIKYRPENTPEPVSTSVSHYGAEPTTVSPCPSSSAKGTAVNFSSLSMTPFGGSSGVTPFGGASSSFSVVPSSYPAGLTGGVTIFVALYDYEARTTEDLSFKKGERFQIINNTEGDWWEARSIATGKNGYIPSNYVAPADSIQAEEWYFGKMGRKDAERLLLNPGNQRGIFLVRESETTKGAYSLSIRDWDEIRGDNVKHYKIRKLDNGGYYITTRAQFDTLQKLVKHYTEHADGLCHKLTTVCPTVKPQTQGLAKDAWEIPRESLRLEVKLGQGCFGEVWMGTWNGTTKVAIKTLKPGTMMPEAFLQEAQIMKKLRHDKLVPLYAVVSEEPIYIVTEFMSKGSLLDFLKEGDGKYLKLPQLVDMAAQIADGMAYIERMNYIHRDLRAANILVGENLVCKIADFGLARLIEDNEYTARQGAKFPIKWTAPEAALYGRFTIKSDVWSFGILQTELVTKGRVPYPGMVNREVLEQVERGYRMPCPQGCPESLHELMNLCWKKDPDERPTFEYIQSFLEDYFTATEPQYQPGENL
PRT1: E3 ubiquitin-protein ligase PRT1 (PRT1, Arabidopsis thaliana, UniProt Q8LBL5)
Sequence of UniProt Q8LBL5 (whole entry, looked up): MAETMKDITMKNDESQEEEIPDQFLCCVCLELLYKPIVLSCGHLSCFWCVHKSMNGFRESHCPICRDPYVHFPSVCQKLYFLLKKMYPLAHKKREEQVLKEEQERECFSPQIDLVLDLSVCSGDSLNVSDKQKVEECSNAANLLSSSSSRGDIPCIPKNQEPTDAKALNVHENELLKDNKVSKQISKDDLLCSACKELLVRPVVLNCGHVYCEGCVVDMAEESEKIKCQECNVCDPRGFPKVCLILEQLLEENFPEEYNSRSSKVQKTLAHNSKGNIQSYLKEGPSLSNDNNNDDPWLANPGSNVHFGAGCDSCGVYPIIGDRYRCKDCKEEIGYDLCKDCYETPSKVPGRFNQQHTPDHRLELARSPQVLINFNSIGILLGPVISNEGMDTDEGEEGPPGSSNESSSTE
Sequence of UniProt P21553 (whole entry, looked up): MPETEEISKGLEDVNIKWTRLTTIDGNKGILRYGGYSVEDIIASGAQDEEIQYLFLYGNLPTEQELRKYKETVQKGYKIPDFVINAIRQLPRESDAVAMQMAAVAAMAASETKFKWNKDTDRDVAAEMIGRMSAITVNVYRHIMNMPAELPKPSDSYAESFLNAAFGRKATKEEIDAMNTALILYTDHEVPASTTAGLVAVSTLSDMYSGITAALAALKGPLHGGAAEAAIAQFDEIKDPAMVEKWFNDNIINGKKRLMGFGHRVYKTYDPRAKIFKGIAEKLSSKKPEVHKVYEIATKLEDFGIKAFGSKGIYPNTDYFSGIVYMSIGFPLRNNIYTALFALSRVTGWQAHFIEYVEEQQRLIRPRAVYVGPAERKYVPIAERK
Sequence of UniProt Q08460 (whole entry, looked up): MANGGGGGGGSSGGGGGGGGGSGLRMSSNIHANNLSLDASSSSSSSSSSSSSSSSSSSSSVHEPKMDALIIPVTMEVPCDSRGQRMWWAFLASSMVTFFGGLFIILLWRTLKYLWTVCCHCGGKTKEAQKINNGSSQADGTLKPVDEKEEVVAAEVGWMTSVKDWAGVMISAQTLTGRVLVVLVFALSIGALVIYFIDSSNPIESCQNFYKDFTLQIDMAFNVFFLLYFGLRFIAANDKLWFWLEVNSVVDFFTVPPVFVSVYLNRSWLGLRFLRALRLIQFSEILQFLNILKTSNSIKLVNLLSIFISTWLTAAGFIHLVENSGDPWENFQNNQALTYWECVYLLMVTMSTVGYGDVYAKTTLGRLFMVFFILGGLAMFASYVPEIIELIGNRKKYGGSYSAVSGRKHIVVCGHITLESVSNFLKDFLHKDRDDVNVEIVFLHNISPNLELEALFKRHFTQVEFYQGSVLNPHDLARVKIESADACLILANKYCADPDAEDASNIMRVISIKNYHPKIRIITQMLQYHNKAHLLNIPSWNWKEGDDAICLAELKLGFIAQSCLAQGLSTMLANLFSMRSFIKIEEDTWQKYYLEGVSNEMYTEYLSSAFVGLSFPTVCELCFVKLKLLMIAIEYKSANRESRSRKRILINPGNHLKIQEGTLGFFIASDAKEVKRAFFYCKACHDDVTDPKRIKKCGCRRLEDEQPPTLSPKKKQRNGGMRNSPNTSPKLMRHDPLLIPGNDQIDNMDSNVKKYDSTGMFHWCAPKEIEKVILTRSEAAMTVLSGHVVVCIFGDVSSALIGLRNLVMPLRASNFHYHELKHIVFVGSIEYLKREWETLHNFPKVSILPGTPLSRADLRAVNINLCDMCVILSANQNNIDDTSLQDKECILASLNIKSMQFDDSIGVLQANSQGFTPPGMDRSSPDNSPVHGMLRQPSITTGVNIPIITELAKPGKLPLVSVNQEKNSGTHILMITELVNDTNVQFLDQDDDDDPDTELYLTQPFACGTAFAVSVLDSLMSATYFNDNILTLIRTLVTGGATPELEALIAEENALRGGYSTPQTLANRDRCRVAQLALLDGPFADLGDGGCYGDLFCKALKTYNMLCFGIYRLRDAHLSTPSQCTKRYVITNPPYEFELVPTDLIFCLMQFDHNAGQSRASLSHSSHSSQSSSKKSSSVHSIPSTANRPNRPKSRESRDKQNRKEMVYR
Sequence of UniProt O49687 (55-253, looked up): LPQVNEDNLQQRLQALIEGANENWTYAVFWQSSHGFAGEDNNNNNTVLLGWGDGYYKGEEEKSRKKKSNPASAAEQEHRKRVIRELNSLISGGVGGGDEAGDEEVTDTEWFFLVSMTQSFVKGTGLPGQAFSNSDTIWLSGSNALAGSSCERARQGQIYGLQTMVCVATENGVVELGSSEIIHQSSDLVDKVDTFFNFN
Sequence of UniProt P40874 (whole entry, looked up): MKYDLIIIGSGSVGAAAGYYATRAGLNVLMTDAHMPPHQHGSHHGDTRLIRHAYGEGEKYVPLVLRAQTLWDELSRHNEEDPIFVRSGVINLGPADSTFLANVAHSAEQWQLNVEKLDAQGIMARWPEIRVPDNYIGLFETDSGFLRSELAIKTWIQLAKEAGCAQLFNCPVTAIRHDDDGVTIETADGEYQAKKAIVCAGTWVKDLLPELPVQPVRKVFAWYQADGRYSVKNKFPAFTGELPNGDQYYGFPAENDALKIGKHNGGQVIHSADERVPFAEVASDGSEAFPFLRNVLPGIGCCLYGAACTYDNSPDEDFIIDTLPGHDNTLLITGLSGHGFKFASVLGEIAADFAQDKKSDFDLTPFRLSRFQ
Sequence of UniProt Q93UV0 (whole entry, looked up): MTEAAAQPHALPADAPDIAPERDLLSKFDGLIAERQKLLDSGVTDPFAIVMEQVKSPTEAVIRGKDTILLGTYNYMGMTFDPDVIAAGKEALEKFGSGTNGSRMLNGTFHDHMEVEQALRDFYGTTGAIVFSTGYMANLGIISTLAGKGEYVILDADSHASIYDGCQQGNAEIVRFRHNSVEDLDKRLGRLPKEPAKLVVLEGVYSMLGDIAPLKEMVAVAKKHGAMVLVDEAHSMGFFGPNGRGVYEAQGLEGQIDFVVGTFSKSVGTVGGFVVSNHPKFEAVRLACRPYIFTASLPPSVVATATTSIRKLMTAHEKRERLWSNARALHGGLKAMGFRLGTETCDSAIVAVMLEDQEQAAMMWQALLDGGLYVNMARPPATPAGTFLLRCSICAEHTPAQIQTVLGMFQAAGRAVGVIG
Sequence of UniProt Q9EP73 (whole entry, looked up): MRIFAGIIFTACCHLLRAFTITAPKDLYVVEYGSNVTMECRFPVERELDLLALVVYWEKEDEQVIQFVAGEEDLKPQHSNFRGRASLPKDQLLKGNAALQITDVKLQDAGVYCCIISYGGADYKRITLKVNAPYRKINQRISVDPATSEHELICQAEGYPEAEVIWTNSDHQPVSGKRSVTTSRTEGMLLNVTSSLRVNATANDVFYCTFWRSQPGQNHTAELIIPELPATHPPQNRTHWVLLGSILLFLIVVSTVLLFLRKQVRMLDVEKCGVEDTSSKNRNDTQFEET
Sequence of UniProt P03023 (whole entry, unmodified, looked up): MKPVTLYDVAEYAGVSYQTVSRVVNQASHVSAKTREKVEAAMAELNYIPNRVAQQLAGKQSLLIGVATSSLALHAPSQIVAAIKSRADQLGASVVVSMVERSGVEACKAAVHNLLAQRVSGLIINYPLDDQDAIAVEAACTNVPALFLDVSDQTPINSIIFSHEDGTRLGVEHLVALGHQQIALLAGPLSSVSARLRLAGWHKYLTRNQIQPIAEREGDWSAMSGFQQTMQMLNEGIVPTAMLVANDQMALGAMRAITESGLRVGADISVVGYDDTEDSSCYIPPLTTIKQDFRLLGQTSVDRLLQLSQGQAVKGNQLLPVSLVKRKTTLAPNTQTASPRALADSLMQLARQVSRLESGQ

| SMILES | target | assay | test system | conditions | Kd |
| --- | --- | --- | --- | --- | --- |
| CC[C@H](C)[C@H](NC(=O)[C@H](CCC(N)=O)NC(=O)[C@@H](NC(=O)[C@@H]1CCCN1C(=O)[C@@H](NC(=O)[C@H](CO)NC(=O)[C@H](Cc1ccccc1)NC(=O)[C@@H]1CCCN1C(=O)[C@H](CCC(N)=O)NC(=O)[C@@H](N)CCSC)[C@@H](C)CC)C(C)C)C(=O)N[C@H](C(=O)N[C@@H](CC(C)C)C(=O)N[C@@H](CCC(N)=O)C(=O)NCC(=O)N[C@@H](CO)C(=O)N[C@@H](CCCNC(=N)N)C(=O)N[C@@H](CCCNC(=N)N)C(=O)N[C@@H](CCCNC(=N)N)C(=O)N[C@@H](CCC(N)=O)C(=O)NCC(=O)N[C@@H](CCCNC(=N)N)C(N)=O)[C@@H](C)O | Kcnma1 (Mus musculus, UniProt Q08460) | ion current, blocker, inside-out patch clamp | Xenopus oocytes | +80 mV, together with: 10 µM cytosolic Ca2+ | 0.4 µM |
| Cn1c2cccc(=O)c-2nc2ccccc21 | mexR | microscale thermophoresis | – | – | 10.6 µM |
| NCCCC[C@H](N)C(=O)O | Uncharacterized protein (Pelagibacter ubique, UniProt Q4FM26) | isothermal titration calorimetry | Candidatus Pelagibacter ubique | – | 0.284 µM and 0.106 µM |
| CC[C@H](C)[C@H](NC(=O)[C@H](Cc1ccc(OP(=O)(O)O)cc1)NC(=O)[C@H](CCC(=O)O)NC(=O)[C@H](Cc1c[nH]cn1)NC(=O)CNC(=O)[C@H](CC(=O)O)NC(=O)[C@H](CO)NC(=O)[C@H](CO)NC(=O)[C@@H](NC(=O)[C@H](CO)NC(=O)[C@H](CCC(=O)O)NC(=O)c1ccc2c(c1)C(=O)OC21c2ccc(N(C)C)cc2Oc2cc(N(C)C)ccc21)C(C)C)C(=O)N[C@@H](Cc1ccc(O)cc1)C(=O)N[C@H](C(=O)N[C@@H](CC(=O)O)C(=O)N1CCC[C@H]1C(=O)N[C@@H](CCSC)C(=O)N[C@@H](CCC(N)=O)C(=O)N[C@@H](CC(=O)O)C(=O)O)C(C)C | YES1 SH2 domain | binding | – | – | 1.26 µM |
| CC[C@@H](C)[C@@H](NC(=O)[C@@H](Cc1ccc(O)cc1)NC(=O)[C@H]1CCCN1C(=O)[C@@H](CCCNC(=N)N)NC(=O)[C@H](N)Cc1c[nH]cn1)C(=O)N[C@H](C)C(=O)N[C@H](Cc1c[nH]cn1)C(=O)N[C@H](CCCNC(=N)N)C(=O)N[C@@H](C(=O)N[C@H](Cc1ccc(O)cc1)C(=O)N[C@H](CO)C(=O)N[C@H](Cc1ccccc1)C(N)=O)C(C)C | Cd274 (Mus musculus, UniProt Q9EP73) | microscale thermophoresis | – | 6 h, His-tagged protein | 4.2 ± 2.5 µM |
| NCCCC[C@H](NC(=O)[C@@H](N)Cc1ccc(O)cc1)C(=O)N[C@@H](Cc1ccccc1)C(=O)O | PRT1 | ITC | – | pH 7.5, 25 °C | 6.86 ± 0.264 µM |
| O=C(O)C(F)(F)C(F)(F)C(F)(F)C(F)(F)C(F)(F)C(F)(F)C(F)(F)F | Albumin (ALB, Homo sapiens, UniProt P02768) | isothermal titration calorimetry | – | 25 °C, high-affinity site, two-site model | 0.107 µM |
| CN[C@@H](Cc1c[nH]c2ccccc12)C(=O)O | N-methyl-L-tryptophan oxidase, oxidized (solA, Escherichia coli, UniProt P40874) | spectral titration | – | oxidised enzyme | 973 ± 42 µM |
| CC[C@H](C)[C@H](NC(=O)CNC(=O)[C@H](CC(=O)O)NC(=O)[C@H](Cc1ccc(OP(=O)(O)O)cc1)NC(=O)[C@@H]1CCCN1C(=O)[C@H](CCCCN)NC(=O)[C@H](CO)NC(=O)CNC(=O)[C@H](Cc1ccccc1)NC(=O)[C@@H](NC(=O)[C@H](CCSC)NC(=O)[C@H](CC(C)C)NC(=O)[C@H](CCC(=O)O)NC(=O)c1ccc2c(c1)C(=O)OC21c2ccc(N(C)C)cc2Oc2cc(N(C)C)ccc21)[C@@H](C)O)C(=O)N1CCC[C@H]1C(=O)N[C@@H](C)C(=O)N[C@@H](CO)C(=O)N[C@@H](CCC(=O)O)C(=O)N[C@@H](CC(=O)O)C(=O)O | YES1 SH2 domain | binding | – | – | 0.328 µM |
| Nc1ncnc2c1ncn2[C@@H]1O[C@H](COP(=O)(O)OP(=O)(O)NP(=O)(O)O)[C@@H](O)[C@H]1O | Inactive tyrosine-protein kinase PRAG1 (PRAG1, Homo sapiens, UniProt Q86YV5) | binding, SPR | – | – | 1.5 µM |
| CC[C@H](C)[C@H](NC(=O)[C@H](C)NC(=O)CNC(=O)[C@H](CCC(N)=O)NC(=O)[C@@H](NC(=O)[C@H](CC(=O)O)NC(=O)[C@H](CCCNC(=N)N)NC(=O)[C@H](Cc1ccccc1)NC(=O)[C@H](CO)NC(=O)[C@H](CCCNC(=N)N)NC(=O)[C@H](CCCNC(=N)N)NC(=O)[C@H](CCCNC(=N)N)NC(=O)[C@H](CC(=O)O)NC(=O)[C@H](CC(C)C)NC(=O)[C@H](Cc1ccccc1)NC(=O)[C@H](CCCCN)NC(=O)[C@H](CCC(N)=O)NC(=O)[C@H](Cc1ccccc1)NC(=O)c1ccc(-c2c3ccc(=[N+](C)C)cc-3oc3cc(N(C)C)ccc23)c(C(=O)[O-])c1)[C@@H](C)CC)C(=O)N[C@@H](CO)C(=O)N[C@@H](CCCCN)C(=O)N[C@H](C(=O)N[C@@H](CC(=O)O)C(=O)N1CCC[C@H]1C(=O)N[C@@H](CCC(=O)O)C(=O)N[C@H](C(=O)N[C@H](C(=O)N[C@@H](CCCCN)C(=O)N[C@@H](CO)C(=O)N[C@@H](CC(C)C)C(=O)N[C@@H](CC(C)C)C(=O)N[C@@H](C)C(=O)N[C@@H](CO)C(=O)N[C@H](C(=O)O)[C@@H](C)O)[C@@H](C)CC)[C@@H](C)CC)[C@@H](C)CC | Transcription factor MYC4, residues 55-253 (MYC4, Arabidopsis thaliana, UniProt O49687) | fluorescence anisotropy | – | protein titration, together with: TMR-labelled tracer | 0.3 µM |
| CC(=O)CCCNC(=O)CCNC(=O)[C@H](O)C(C)(C)COP(=O)(O)OP(=O)(O)OC[C@H]1O[C@@H](n2cnc3c(N)ncnc32)[C@H](O)[C@@H]1OP(=O)(O)O | gltA, with oxaloacetate (Thermoplasma acidophilum, UniProt P21553) | binding, fluorescence titration | – | pH 8, 20 °C, together with: oxaloacetate | 1.47 µM and 1.56 µM |
| CSCC[C@H](NC(=O)[C@H](CC(=O)O)NC(=O)c1ccc2c(c1)C(=O)OC21c2ccc(N(C)C)cc2Oc2cc(N(C)C)ccc21)C(=O)N[C@@H](CO)C(=O)N[C@@H](CCCCN)C(=O)N[C@@H](CC(=O)O)C(=O)N[C@@H](CCC(=O)O)C(=O)N[C@@H](CO)C(=O)N[C@H](C(=O)N[C@@H](CC(=O)O)C(=O)N[C@@H](Cc1ccc(OP(=O)(O)O)cc1)C(=O)N[C@H](C(=O)N1CCC[C@H]1C(=O)N[C@@H](CCSC)C(=O)N[C@@H](CC(C)C)C(=O)N[C@@H](CC(=O)O)C(=O)N[C@@H](CCSC)C(=O)N[C@@H](CCCCN)C(=O)N[C@@H](CC(=O)O)C(=O)O)C(C)C)C(C)C | SH2 domain-containing protein 3C, SH2 domain (SH2D3C, Homo sapiens, UniProt Q8N5H7) | binding | – | – | 0.6 µM |
| N[C@@H](CO)C(=O)O | spt (Sphingomonas paucimobilis, UniProt Q93UV0) | UV-visible titration | – | – | 1400 µM |
| CC[C@H](C)[C@H](NC(=O)c1ccc2c(c1)C(=O)OC21c2ccc(N(C)C)cc2Oc2cc(N(C)C)ccc21)C(=O)N[C@@H](CCC(=O)O)C(=O)N[C@@H](CO)C(=O)N[C@@H](CO)C(=O)N[C@@H](CC(N)=O)C(=O)N[C@@H](Cc1ccc(O)cc1)C(=O)N[C@@H](CCSC)C(=O)N[C@@H](C)C(=O)N1CCC[C@H]1C(=O)N[C@@H](Cc1ccc(OP(=O)(O)O)cc1)C(=O)N[C@@H](CC(=O)O)C(=O)N[C@@H](CC(N)=O)C(=O)N[C@@H](Cc1ccc(O)cc1)C(=O)N[C@H](C(=O)N1CCC[C@H]1C(=O)N[C@@H](CO)C(=O)N[C@@H](C)C(=O)N[C@@H](CC(=O)O)C(=O)O)C(C)C | Tyrosine-protein kinase Blk, SH2 domain (BLK, Homo sapiens, UniProt P51451) | binding | – | – | 0.958 µM |
| CC(C)S[C@@H]1O[C@H](CO)[C@H](O)[C@H](O)[C@H]1O | lacI (Escherichia coli, UniProt P03023, N125A) | – | – | – | 1.2 ± 0.2 µM |
| CC[C@H](C)[C@H](NC(=O)[C@H](Cc1ccc(OP(=O)(O)O)cc1)NC(=O)[C@H](CCC(=O)O)NC(=O)[C@@H]1CCCN1C(=O)[C@@H](NC(=O)[C@@H]1CCCN1C(=O)[C@H](CC(C)C)NC(=O)[C@H](Cc1ccccc1)NC(=O)[C@@H](NC(=O)[C@H](CC(=O)O)NC(=O)[C@H](CC(=O)O)NC(=O)c1ccc2c(c1)C(=O)OC21c2ccc(N(C)C)cc2Oc2cc(N(C)C)ccc21)[C@@H](C)O)C(C)C)C(=O)N[C@@H](CC(N)=O)C(=O)N[C@@H](CCC(N)=O)C(=O)N[C@@H](CO)C(=O)N[C@H](C(=O)N1CCC[C@H]1C(=O)N[C@@H](CCCCN)C(=O)N[C@@H](CC(=O)O)C(=O)O)C(C)C | 1-phosphatidylinositol 4,5-bisphosphate phosphodiesterase gamma-2, SH2 domain (PLCG2, Homo sapiens, UniProt P16885) | binding | – | – | 1.63 µM |
| C[C@H](NC(=O)[C@H](C)NC(=O)[C@@H](N)Cc1c[nH]c2ccccc12)C(=O)O | PRT1 | ITC | – | pH 7.5, 25 °C | 4.29 ± 0.76 µM |
| Nc1cc2nc3ccccc3nc2cc1O | mexR | surface plasmon resonance | – | 25 °C | 17.7 µM |
| CSCC[C@H](NC(=O)[C@H](Cc1ccc(OP(=O)(O)O)cc1)NC(=O)CNC(=O)CNC(=O)[C@H](CC(=O)O)NC(=O)[C@H](CO)NC(=O)[C@H](CCC(=O)O)NC(=O)CNC(=O)[C@@H](NC(=O)[C@H](CC(C)C)NC(=O)[C@H](CO)NC(=O)c1ccc2c(c1)C(=O)OC21c2ccc(N(C)C)cc2Oc2cc(N(C)C)ccc21)[C@@H](C)O)C(=O)N[C@@H](CC(=O)O)C(=O)N[C@@H](CCSC)C(=O)N[C@@H](CO)C(=O)N[C@@H](CCCCN)C(=O)N[C@@H](CC(=O)O)C(=O)N[C@@H](CCC(=O)O)C(=O)N[C@@H](CC(=O)O)C(=O)O | Phosphatidylinositol 3-kinase regulatory subunit beta, SH2 domain (Homo sapiens, UniProt O00459) | binding | – | – | 0.165 µM |

A few entries again:
| SMILES | target | assay | test system | conditions | Kd |
| --- | --- | --- | --- | --- | --- |
| NCCCC[C@H](N)C(=O)O | Uncharacterized protein (Pelagibacter ubique, UniProt Q4FM26) | isothermal titration calorimetry | Candidatus Pelagibacter ubique | – | 0.284 µM and 0.106 µM |
